Measurements gathered from unrelated publications.
Protocols differ between the studies behind these lines. Numbers after ± are the reported error.
Organism: Enterococcus faecalis

c1ccc2c(Cc3c[nH]c4ccccc34)c[nH]c2c1 — IC50 (microbial growth, absorbance): > 50 µM
CCCCCCCCCC[N+](C)(C)CCCCCCCCOc1cc(OCCCCCCCC[N+](C)(C)CCCCCCCCCC)cc(OCCCCCCCC[N+](C)(C)CCCCCCCCCC)c1.[Br-].[Br-].[Br-] — MIC (OG1RF): 8 µM
CCCNC(=O)[C@@H]1Cc2ccc(cc2)Oc2cc(ccc2O)[C@@H](NC(=O)[C@H](NC(=O)[C@H](CC(N)=O)NC(=O)[C@@H](Cc2ccc(O)cc2)NC(=O)[C@@H](CC(C)C)NC)c2ccccc2)C(=O)N[C@@H](Cc2ccccc2)C(=O)N1 — IC50 (bacterial growth): 17 ± 3 µM
CCCCCCCC[N+](C)(C)CCCCOc1cc(OCCCC[N+](C)(C)CCCCCCCC)cc(OCCCC[N+](C)(C)CCCCCCCC)c1.[Br-].[Br-].[Br-] — MIC (OG1RF): 2 µM
CN[C@H](CC(C)C)C(=O)N[C@H]1C(=O)N[C@@H](CC(N)=O)C(=O)N[C@H]2C(=O)N[C@H]3C(=O)N[C@H](C(=O)N[C@H](C(=O)O)c4cc(O)cc(O)c4-c4cc3ccc4O)[C@H](O)c3ccc(c(Cl)c3)Oc3cc2cc(c3O[C@@H]2O[C@H](CO)[C@@H](O)[C@H](O)[C@H]2O[C@H]2C[C@](C)(NCc3ccc(-c4ccc(Cl)cc4)cc3)[C@H](O)[C@H](C)O2)Oc2ccc(cc2Cl)[C@H]1O — MIC (BM4166, VanA vancomycin-resistant): 5000 ng/mL
COc1cccc(OC)c1C(=O)N[C@@H]1C(=O)N2[C@@H]1SC(C)(C)[C@@H]2C(=O)O — MIC (microbial growth, broth dilution; 29212): 64 µM
c1ccc2c(Cc3c(-c4c[nH]c5ccccc45)[nH]c4ccccc34)c[nH]c2c1 — IC50 (microbial growth, absorbance): > 50 µM
CCCCCCCC[N+](C)(C)CCCCCCCCCCOc1cc(OCCCCCCCCCC[N+](C)(C)CCCCCCCC)cc(OCCCCCCCCCC[N+](C)(C)CCCCCCCC)c1.[Br-].[Br-].[Br-] — MIC (OG1RF): 16 µM
CCCCC=CC(=O)NC(Cc1cc(F)cc(F)c1)C(=O)NC1COC(=O)C2CCCN2C(=O)C(C)NC(=O)C(C)N(C)C(=O)C2CCCN2C1=O (stereo not drawn) — MIC (microbial growth, broth dilution): 12 ng/mL
CCCCCCCCCC[N+](C)(C)CCCCCCCCCCOc1cc(OCCCCCCCCCC[N+](C)(C)CCCCCCCCCC)cc(OCCCCCCCCCC[N+](C)(C)CCCCCCCCCC)c1.[Br-].[Br-].[Br-] — MIC (OG1RF): 32 µM
CCCNC(=O)[C@H](Cc1ccc(O)cc1)NC(=O)[C@@H]1Cc2ccc(O)c(c2)-c2cc(ccc2O)[C@@H](NC(=O)[C@@H](NC(=O)[C@H](CC(N)=O)NC(=O)[C@@H](Cc2ccc(O)cc2)NC(=O)[C@@H](CC(C)C)NC)c2ccc(O)cc2)C(=O)N1 — IC50 (bacterial growth): > 40 µM
CC(C)CC(c1c[nH]c2ccccc12)c1c[nH]c2ccccc12 — IC50 (microbial growth, absorbance): > 50 µM
CCCCCCCCCC[N+](C)(C)CCCCOc1cc(OCCCC[N+](C)(C)CCCCCCCCCC)cc(OCCCC[N+](C)(C)CCCCCCCCCC)c1.[Br-].[Br-].[Br-] — MIC (OG1RF): 1 µM
CCCC/C=C/C(=O)N[C@@H](Cc1cc(F)cc(F)c1)C(=O)N[C@@H]1C(=O)N2CCC[C@H]2C(=O)N2CCCC[C@H]2C(=O)N[C@@H](C)C(=O)N2CCC[C@H]2C(=O)O[C@H]1C — MIC (microbial growth, broth dilution): < 0.02 ng/mL
c1ccc2c([C+](c3c[nH]c4ccccc34)c3c[nH]c4ccccc34)c[nH]c2c1 — IC50 (microbial growth, absorbance): > 50 µM

Repeated from above:
COc1cccc(OC)c1C(=O)N[C@@H]1C(=O)N2[C@@H]1SC(C)(C)[C@@H]2C(=O)O — MIC (microbial growth, broth dilution; 29212): 64 µM
c1ccc2c(Cc3c(-c4c[nH]c5ccccc45)[nH]c4ccccc34)c[nH]c2c1 — IC50 (microbial growth, absorbance): > 50 µM
CCCCCCCC[N+](C)(C)CCCCCCCCCCOc1cc(OCCCCCCCCCC[N+](C)(C)CCCCCCCC)cc(OCCCCCCCCCC[N+](C)(C)CCCCCCCC)c1.[Br-].[Br-].[Br-] — MIC (OG1RF): 16 µM
